Published values of several laboratories.
A part holds a random share of what one study measured.
UniProt P35626, sequence (whole entry, looked up): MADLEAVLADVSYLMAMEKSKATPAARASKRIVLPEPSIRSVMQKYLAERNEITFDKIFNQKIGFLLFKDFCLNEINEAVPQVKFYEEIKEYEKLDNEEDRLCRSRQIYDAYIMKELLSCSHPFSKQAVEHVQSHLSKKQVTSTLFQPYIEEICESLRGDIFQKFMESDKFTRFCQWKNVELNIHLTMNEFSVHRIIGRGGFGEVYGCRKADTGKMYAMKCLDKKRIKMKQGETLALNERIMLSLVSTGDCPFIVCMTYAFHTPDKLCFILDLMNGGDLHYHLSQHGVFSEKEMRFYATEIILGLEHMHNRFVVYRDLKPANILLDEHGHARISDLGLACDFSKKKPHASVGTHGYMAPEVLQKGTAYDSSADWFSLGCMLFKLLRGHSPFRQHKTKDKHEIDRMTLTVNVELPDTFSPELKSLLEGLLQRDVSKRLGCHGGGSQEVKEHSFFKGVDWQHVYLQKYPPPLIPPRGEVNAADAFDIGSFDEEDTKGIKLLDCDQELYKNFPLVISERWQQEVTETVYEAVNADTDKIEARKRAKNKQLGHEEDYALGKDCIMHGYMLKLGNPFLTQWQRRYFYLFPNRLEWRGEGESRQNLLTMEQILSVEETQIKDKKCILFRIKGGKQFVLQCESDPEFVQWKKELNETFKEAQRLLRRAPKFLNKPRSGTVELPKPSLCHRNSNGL
UniProt Q15349, sequence (whole entry, looked up): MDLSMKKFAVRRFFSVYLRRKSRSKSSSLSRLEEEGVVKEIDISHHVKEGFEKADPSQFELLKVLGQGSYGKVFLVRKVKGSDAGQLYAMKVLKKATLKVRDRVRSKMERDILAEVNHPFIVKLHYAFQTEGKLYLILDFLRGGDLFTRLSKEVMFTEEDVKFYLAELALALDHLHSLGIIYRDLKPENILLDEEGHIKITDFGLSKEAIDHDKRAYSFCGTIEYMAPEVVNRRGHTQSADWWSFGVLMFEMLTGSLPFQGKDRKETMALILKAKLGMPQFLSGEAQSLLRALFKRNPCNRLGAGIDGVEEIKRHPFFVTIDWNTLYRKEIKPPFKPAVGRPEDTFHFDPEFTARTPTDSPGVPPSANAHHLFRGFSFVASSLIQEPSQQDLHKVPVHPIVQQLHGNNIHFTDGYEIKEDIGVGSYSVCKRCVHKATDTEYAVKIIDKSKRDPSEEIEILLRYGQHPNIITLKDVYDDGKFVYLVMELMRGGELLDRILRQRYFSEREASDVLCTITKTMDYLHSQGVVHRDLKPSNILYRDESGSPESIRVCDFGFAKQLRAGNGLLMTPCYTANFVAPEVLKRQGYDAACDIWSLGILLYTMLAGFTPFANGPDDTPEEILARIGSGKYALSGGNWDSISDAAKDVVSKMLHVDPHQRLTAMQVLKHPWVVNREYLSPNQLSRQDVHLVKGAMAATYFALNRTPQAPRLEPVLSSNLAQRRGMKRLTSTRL
UniProt Q8CIP4, sequence (whole entry, looked up): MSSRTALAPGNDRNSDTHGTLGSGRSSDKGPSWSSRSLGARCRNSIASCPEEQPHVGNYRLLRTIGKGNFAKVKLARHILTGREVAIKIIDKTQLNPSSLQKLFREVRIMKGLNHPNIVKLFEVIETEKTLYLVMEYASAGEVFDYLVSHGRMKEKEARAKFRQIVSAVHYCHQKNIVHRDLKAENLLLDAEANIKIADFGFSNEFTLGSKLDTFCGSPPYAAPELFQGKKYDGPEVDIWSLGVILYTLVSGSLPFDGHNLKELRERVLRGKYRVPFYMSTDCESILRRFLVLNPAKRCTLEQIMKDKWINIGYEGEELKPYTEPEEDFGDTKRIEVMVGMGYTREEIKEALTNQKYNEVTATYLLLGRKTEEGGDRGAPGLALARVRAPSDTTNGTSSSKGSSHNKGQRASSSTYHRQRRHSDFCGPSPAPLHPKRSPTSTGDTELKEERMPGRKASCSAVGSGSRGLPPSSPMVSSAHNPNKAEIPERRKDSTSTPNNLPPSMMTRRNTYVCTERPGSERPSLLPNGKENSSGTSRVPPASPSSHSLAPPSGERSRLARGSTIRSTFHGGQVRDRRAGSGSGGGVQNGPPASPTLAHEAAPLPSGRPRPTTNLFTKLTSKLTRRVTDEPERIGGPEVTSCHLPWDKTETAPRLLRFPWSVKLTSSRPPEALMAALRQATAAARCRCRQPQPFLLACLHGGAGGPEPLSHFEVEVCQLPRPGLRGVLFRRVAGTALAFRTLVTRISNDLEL
UniProt P35590, sequence (whole entry, looked up): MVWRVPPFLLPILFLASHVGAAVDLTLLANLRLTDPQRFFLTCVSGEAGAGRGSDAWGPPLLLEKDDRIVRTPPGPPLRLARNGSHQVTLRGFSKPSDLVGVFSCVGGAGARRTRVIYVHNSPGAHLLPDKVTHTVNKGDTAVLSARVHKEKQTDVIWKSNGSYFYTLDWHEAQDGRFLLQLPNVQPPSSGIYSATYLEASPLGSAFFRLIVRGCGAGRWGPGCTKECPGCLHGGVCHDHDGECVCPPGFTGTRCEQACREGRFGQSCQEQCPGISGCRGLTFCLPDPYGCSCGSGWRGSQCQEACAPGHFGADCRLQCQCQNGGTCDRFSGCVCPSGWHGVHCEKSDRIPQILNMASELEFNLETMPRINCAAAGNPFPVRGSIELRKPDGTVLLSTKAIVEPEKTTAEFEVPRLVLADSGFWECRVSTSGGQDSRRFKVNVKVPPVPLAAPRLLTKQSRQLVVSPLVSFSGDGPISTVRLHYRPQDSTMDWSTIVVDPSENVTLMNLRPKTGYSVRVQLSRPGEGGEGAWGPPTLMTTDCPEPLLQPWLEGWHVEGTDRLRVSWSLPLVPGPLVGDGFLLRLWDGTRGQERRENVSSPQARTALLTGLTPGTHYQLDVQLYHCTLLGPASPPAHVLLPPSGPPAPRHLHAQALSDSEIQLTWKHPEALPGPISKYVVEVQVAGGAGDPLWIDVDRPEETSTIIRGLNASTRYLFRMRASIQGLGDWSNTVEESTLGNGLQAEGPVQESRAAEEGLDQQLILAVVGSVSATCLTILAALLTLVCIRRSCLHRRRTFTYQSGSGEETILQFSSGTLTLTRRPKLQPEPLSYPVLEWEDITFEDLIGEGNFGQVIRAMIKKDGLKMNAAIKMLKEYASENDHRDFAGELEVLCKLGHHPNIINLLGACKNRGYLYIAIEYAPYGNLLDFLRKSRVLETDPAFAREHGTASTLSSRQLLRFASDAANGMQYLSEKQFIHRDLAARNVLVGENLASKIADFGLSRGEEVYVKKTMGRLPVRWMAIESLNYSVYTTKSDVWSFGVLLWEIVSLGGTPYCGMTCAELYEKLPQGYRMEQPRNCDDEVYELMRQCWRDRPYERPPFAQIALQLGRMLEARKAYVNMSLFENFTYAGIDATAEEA
UniProt Q8NFD2, sequence (whole entry, looked up): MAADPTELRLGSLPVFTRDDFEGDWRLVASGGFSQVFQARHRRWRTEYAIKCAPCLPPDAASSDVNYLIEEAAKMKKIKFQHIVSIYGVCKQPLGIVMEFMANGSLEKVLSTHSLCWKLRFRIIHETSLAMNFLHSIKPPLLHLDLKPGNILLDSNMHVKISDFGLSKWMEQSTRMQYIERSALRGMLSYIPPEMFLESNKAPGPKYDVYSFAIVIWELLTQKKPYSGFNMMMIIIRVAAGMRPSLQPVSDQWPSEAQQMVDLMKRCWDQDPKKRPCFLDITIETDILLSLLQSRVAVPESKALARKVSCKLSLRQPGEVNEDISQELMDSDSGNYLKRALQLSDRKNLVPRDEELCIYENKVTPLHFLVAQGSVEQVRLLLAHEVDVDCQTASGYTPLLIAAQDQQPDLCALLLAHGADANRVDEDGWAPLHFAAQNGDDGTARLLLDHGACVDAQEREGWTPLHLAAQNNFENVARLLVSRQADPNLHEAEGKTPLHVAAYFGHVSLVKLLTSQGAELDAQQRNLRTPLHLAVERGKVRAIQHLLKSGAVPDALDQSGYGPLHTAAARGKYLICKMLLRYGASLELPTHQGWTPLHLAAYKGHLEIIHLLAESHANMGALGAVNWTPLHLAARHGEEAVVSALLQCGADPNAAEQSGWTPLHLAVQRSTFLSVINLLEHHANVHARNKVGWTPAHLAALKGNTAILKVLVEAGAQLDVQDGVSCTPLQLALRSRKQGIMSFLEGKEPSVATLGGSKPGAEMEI
UniProt P49841, sequence (whole entry, looked up): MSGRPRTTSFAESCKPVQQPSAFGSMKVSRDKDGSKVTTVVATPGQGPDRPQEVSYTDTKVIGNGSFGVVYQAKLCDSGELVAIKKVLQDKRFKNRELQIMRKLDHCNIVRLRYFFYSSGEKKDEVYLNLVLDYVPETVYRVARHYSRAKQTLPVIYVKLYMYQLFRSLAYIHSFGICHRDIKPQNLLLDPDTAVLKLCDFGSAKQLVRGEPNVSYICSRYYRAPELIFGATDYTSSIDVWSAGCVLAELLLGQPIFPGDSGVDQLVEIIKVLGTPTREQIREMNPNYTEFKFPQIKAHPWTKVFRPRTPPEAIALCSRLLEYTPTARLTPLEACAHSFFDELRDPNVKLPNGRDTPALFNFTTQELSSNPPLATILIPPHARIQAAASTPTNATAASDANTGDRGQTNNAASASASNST
UniProt Q96S53, sequence (whole entry, looked up): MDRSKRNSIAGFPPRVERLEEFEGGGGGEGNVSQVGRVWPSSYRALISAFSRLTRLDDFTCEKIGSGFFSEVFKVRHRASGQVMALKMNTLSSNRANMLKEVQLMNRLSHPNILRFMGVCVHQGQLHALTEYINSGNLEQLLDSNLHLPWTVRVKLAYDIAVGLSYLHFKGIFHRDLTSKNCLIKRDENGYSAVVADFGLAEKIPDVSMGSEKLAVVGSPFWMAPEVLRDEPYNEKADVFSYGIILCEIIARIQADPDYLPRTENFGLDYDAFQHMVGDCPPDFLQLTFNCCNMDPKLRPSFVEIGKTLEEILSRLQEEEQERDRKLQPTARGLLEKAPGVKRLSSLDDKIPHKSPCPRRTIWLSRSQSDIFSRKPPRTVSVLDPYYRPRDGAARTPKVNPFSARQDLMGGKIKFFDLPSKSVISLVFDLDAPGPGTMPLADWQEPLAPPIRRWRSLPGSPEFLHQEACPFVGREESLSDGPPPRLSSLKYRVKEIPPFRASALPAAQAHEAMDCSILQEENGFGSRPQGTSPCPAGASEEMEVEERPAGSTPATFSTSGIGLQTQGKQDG

Set 1
Compound: COc1cc(C(=O)N2CCC(N3CCN(C)CC3)CC2)ccc1Nc1ncc2c(n1)N(C)c1ccccc1C(=O)N2C
Measurement: inhibition
MAP3K2 and MAP3K3 (mouse); probe labelling, KiNativ, refers to: DIkGANILR peptide, LYS2 site; brain tissue lysate (mouse); 0.1 µM, added: ATP acyl-phosphate probe: -1.7%
human PBMC; probe labeling, inhibitor, KiNativ profiling, refers to: VDTHALYAMkTLR; cell lysate; 1 µM, LYS1 site, added: ATP acyl-phosphate probe: 8.1%
mouse NUAK1; probe labelling, KiNativ ATP probe; mouse brain lysate; 1 µM: 7.8%
MAP/microtubule affinity-regulating kinase 4 (Mus musculus, UniProt Q8CIP4); KiNativ profiling; mouse brain lysate; 0.1 µM, LYS1 site, added: ATP acyl phosphate probe: -8%
mouse FAK; probe labelling, KiNativ ATP probe; mouse brain lysate; 1 µM: 9.6%
FES (human); probe labelling, KiNativ ATP probe; human PBMC lysate; concentration not given, LYS1 labelled site: 6.3%

Set 2
Species: mouse
Medium: microsomes or S9
Concentration: 2 µM
Time: 0.5 h
Measurement: remaining compound
Cn1cnnc1C1CCCCN1S(=O)(=O)c1cccc2cccnc12 (stereo not shown): 51.6%
Cc1cc(=O)c(C(=O)Nc2nc3ccccc3nc2N2CCCC2)nn1-c1ccc(Cl)cc1: 51%
CC(NCc1cccc(OCc2cccnc2)c1)c1ccc2c(c1)OCCCO2 (stereo not shown): 0.0217%
CCNS(=O)(=O)c1cc(-c2ccc(=O)[nH]n2)sc1C: 91%
OC/C=C/Cc1cc2cc(Cl)ccc2n1-c1ncccn1: 23.3%
O=C(O)c1ccc(CN(c2ccccn2)S(=O)(=O)c2ccccc2)cc1: 95.8%
Cc1ccc(Nc2cc(N3CCN(c4oc(C)nc4C#N)CC3)ncn2)cc1: 6.96%
COc1ccc(NC(=O)COCc2ccccc2)cc1: 2.41%

Set 3
Compound: CCCCN(CCCC)C(=O)CN1C[C@H](c2cc(OC)c3c(c2)OCO3)[C@@H](C(=O)O)[C@@H]1CC(C)(C)CCC
Read-out: cell-free assay
Technique: competition with immobilised ligand
Concentration: 1 µM
Measurement: remaining binding
GSK3B (Homo sapiens, UniProt P49841): 100%
ANKK1 (Homo sapiens, UniProt Q8NFD2): 55.1%
Tyrosine-protein kinase ABL1, phosphorylated (ABL1, Homo sapiens, UniProt P00519, Q252H): 97.7%
PDGFRA (Homo sapiens, UniProt P16234): 56.1%
FLT3 (Homo sapiens, UniProt P36888, D835H): 100%
GRK3 (Homo sapiens, UniProt P35626): 50.8%
STK24 (Homo sapiens, UniProt Q9Y6E0): 100%
ACVR2A (Homo sapiens, UniProt P27037): 97.4%
TSSK1B (Homo sapiens, UniProt Q9BXA7): 100%
PRKX (Homo sapiens, UniProt P51817): 100%
NEK4 (Homo sapiens, UniProt P51957): 85%
MAPKAPK2 (Homo sapiens, UniProt P49137): 100%
Tyrosine-protein kinase ABL1, phosphorylated (ABL1, Homo sapiens, UniProt P00519, M351T): 96.9%
DYRK1B (Homo sapiens, UniProt Q9Y463): 100%
TIE1 (Homo sapiens, UniProt P35590): 100%
Ribosomal protein S6 kinase alpha-2, C-terminal kinase domain (RPS6KA2, Homo sapiens, UniProt Q15349): 100%
PKMYT1 (Homo sapiens, UniProt Q99640): 100%

Set 4
Structure (SMILES): Cc1sc(C(=O)NC2COC2)cc1-n1cc(NC(=O)Nc2c(F)cccc2Cl)cn1
Read-out: enzyme activity
Concentration: 10 µM
Baseline: untreated control
Measurement: remaining activity
TESK2 (Homo sapiens, UniProt Q96S53): 97.4%
MAPK7 (Homo sapiens, UniProt Q13164): 95%
CSNK2A2 (Homo sapiens, UniProt P19784): 93.3%
MERTK (Homo sapiens, UniProt Q12866): 101%
ABL2 (Homo sapiens, UniProt P42684): 122%
GRK3 (Homo sapiens, UniProt P35626): 105%

Excerpt of the above (set 3):
PKMYT1 (Homo sapiens, UniProt Q99640): 100%
ACVR2A (Homo sapiens, UniProt P27037): 97.4%
STK24 (Homo sapiens, UniProt Q9Y6E0): 100%
